Assay results of several laboratories.
Protocols differ between the studies behind these lines. Several values in a cell are separate wells, animals, samples, runs or records. Numbers after ± are the reported error.
uncharacterized protein: uncharacterized protein (Anopheles coluzzii, UniProt A0A6E8VQK1)
Chain of UniProt P27361 (whole entry, looked up): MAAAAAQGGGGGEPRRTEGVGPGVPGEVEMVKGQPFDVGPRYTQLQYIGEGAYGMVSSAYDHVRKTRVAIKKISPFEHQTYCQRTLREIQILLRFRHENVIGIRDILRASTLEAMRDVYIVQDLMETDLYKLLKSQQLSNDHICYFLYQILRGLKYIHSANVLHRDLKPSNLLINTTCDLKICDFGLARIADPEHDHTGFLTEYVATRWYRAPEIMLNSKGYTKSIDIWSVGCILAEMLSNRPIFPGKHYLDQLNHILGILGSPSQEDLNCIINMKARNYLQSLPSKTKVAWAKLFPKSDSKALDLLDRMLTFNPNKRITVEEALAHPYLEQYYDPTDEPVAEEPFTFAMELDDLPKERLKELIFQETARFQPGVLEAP
Chain of UniProt P00942 (whole entry, unmodified, looked up): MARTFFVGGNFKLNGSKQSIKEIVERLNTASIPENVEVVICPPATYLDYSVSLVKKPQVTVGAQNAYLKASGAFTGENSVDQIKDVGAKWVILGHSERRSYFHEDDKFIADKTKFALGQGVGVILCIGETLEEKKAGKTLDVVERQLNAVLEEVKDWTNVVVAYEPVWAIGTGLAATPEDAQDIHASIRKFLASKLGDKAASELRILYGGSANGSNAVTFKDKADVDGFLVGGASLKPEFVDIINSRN
Chain of UniProt Q96E52 (whole entry, looked up): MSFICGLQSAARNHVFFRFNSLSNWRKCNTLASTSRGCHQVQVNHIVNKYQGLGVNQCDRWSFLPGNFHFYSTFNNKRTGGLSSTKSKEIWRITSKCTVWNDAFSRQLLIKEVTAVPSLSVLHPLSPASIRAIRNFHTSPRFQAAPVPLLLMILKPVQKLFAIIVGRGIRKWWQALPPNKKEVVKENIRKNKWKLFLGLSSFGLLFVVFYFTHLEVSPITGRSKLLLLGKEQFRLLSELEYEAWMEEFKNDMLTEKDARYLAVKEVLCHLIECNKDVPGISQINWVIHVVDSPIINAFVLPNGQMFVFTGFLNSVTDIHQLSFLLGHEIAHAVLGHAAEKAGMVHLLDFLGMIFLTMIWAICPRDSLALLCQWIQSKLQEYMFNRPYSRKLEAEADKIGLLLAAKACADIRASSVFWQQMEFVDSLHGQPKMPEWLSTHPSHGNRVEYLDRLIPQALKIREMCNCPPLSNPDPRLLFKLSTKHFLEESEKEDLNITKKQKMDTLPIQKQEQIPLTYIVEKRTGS
Chain of UniProt P20782 (whole entry, looked up): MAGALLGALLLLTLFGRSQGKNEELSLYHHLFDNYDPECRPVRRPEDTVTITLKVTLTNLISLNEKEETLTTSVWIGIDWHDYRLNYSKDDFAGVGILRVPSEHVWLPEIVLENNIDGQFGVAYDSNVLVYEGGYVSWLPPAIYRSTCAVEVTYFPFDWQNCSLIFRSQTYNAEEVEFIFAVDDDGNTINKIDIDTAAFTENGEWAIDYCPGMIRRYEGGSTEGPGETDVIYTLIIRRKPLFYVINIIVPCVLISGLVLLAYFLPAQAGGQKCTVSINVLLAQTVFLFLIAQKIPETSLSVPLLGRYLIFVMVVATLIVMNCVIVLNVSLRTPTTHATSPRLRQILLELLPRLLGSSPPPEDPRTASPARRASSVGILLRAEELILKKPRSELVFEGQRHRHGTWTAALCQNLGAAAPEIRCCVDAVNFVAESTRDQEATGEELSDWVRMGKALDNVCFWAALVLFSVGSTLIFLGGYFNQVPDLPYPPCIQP
Chain of UniProt P29376 (whole entry, looked up): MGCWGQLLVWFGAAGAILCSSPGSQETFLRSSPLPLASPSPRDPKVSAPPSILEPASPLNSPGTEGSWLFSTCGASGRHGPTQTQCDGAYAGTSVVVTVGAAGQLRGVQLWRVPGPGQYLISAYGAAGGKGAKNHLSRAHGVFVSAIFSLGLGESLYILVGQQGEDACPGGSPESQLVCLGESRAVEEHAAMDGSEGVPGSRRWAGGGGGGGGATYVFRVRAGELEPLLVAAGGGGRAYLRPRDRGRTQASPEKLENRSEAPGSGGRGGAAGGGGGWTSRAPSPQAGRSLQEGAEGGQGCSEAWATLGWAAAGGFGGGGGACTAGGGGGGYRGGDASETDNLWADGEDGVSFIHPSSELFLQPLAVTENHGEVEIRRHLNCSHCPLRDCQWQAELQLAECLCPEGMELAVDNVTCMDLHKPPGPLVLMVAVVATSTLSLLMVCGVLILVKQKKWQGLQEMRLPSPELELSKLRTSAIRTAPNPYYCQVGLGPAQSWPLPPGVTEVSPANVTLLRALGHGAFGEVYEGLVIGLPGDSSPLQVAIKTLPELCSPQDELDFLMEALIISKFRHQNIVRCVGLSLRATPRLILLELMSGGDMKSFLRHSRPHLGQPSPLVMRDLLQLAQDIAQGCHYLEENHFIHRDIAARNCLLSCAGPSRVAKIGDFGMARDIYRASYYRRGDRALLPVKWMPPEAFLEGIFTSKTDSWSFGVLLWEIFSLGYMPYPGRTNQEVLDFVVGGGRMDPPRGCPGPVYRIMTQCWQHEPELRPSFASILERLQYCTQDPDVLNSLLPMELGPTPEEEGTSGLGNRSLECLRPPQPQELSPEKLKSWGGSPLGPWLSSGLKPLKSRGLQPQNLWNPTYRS
Chain of UniProt O15530 (whole entry, looked up): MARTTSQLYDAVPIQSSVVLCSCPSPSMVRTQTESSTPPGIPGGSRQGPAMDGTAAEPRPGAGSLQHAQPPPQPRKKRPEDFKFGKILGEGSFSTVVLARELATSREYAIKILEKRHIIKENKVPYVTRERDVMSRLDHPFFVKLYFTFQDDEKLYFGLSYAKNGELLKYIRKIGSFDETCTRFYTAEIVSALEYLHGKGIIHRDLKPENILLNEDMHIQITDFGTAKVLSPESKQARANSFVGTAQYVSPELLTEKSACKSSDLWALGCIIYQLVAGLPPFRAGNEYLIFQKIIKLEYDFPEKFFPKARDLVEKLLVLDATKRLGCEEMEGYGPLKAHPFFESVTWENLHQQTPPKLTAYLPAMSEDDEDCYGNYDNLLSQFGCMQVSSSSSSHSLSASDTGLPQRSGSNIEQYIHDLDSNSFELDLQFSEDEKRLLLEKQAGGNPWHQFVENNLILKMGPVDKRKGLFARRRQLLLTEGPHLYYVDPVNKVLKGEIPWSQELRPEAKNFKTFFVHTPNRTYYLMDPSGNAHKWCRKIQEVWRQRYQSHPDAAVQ
Chain of UniProt Q16543 (whole entry, looked up): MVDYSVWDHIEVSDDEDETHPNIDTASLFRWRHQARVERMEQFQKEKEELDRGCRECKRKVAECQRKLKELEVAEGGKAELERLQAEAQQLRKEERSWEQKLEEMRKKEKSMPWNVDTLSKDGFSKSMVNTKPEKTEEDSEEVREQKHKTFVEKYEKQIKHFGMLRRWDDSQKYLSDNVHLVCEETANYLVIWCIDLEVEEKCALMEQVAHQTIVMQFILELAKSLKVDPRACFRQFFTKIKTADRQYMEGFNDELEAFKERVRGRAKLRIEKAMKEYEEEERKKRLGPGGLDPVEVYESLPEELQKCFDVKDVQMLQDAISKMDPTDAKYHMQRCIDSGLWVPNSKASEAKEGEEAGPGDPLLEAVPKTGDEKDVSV
Chain of UniProt H2K887 (whole entry, looked up): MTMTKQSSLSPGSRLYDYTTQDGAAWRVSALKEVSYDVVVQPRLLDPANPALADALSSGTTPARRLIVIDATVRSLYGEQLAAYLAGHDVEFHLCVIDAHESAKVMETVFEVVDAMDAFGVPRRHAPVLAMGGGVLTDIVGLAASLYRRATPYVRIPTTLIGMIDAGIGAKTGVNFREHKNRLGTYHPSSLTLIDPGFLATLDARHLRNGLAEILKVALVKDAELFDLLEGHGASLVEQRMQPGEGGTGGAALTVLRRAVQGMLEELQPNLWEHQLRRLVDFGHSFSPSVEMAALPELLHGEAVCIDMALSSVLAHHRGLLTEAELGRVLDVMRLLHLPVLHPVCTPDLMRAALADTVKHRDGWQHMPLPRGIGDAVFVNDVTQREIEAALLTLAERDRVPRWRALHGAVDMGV
Chain of UniProt Q14994 (whole entry, looked up): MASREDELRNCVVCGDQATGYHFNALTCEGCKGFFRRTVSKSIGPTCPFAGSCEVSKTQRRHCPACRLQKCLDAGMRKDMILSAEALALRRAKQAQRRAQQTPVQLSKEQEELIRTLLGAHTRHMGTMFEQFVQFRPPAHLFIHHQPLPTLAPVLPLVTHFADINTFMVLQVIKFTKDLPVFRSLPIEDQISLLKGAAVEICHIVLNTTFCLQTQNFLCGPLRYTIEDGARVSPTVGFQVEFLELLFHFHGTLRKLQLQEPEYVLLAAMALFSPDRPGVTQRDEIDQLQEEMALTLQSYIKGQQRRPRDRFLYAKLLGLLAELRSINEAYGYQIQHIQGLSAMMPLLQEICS

O=C(Nc1cccnn1)N1CCC(=Cc2cccc(Oc3ccc(C(F)(F)F)cn3)c2)CC1  inhibition (ryanodine receptor RyR3, rat; binding; 50 µM, added: [3H]ryanodine): 1%
CCC(CNc1nc(-c2cn3ccnc3cc2C)nc2ccccc12)c1ccccc1 (centres unmarked)  Emax (Sodium-dependent dopamine transporter (SLC6A3, Homo sapiens, UniProt Q01959); [3H]dopamine uptake, inhibitor; CHO-K1 expressing transporter): 68.4 ± 8.56%
CNC(=O)Oc1cccc2c1OC(C)(C)O2  remaining activity (uncharacterized protein; enzyme activity, inhibitor; Sf9 cell homogenate; 93.02 µM, 0.1667 h, added: α-naphthyl acetate substrate; reference: no inhibitor): 0.979%
Clc1cc2c(cc1Cl)Oc1cc(Cl)c(Cl)cc1O2  EC20 (Uncharacterized protein (Takifugu rubripes, UniProt Q4JHL6); reporter gene, agonist, dual-luciferase; COS-7; 24 h): 0.08 ± 0.02 nM
C[C@@H]1C[C@@H]([C@H](O)CC2CC(=O)NC(=O)C2)C(=O)[C@@H](C)C1  FLuc/RLuc ratio (Protein transport protein Sec61 subunit alpha isoform 1 (Homo sapiens, UniProt P61619); Sec61-dependent translocation, inhibitor, refers to: CD4 signal peptide-FLuc reporter; HEK293; concentration not given; reference: mock): 0.177
COc1cc(N)c(Cl)cc1C(=O)NC1CN2CCC1CC2 (centres unmarked)  log2 fold change (G-protein coupled receptor 35 (GPR35, Homo sapiens, UniProt Q9HC97); β-arrestin recruitment, TANGO luminescence; concentration not given; reference: basal luminescence): -0.138
O=C(Cc1cccs1)N[C@@H]1C(=O)N2C(C(=O)O)=C(/C=C/c3ccc([N+](=O)[O-])cc3[N+](=O)[O-])CS[C@H]12  kcat (Metallo-beta-lactamase type 2 (blaNDM-1, Klebsiella pneumoniae, UniProt C7C422); substrate, steady-state kinetics): 12.6 ± 0.7 s⁻¹
O=C(Nc1cnccc1Cl)N1CCN(Cc2ccc3c(c2)OC(F)(F)O3)CC1  inhibition (Inhibitor of nuclear factor kappa-B kinase subunit alpha (CHUK, Homo sapiens, UniProt O15111); enzyme activity, inhibitor; 10 µM): 1%
CN[C@@H]1C[C@H]2O[C@@](C)([C@@H]1OC)n1c3ccccc3c3c4c(c5c6ccccc6n2c5c31)C(=O)NC4  ΔTm (Proto-oncogene tyrosine-protein kinase Src (SRC, Homo sapiens, UniProt P12931); binder, differential scanning fluorimetry): 0 °C
O=C1c2ccccc2C(=O)C1c1ccccc1  activity (Nuclear receptor subfamily 1 group I member 3 (Homo sapiens, UniProt Q14994); cells; concentration not given): inactive
COC(=O)[C@H]1[C@H]2C[C@@H]3c4[nH]c5cc(OC)ccc5c4CCN3C[C@H]2C[C@@H](OC(=O)c2cc(OC)c(OC)c(OC)c2)[C@@H]1OC  dopamine uptake (Synaptic vesicular amine transporter (SLC18A2, Homo sapiens, UniProt Q05940); inhibitor; HEK293, permeabilized; 15 µM, added: [3H]dopamine): inhibited
CC(C)C[C@H](NC(=O)[C@@H]1CCCN1C(=O)[C@H](CCCNC(=N)N)NC(=O)[C@H](CC(C)C)NC(=O)[C@H](CCCNC(=N)N)NC(=O)[C@H](CC(=O)O)NC(=O)[C@H](Cc1ccc(O)cc1)NC(=O)[C@H](CC(=O)O)NC(=O)[C@H](CCC(=O)O)NC(=O)[C@H](CCC(N)=O)NC(=O)CN)C(=O)O  koff (Epithelial sodium channel subunit alpha (Homo sapiens, UniProt P37088); binding, bio-layer interferometry): 0.0197 s⁻¹
O=P(O)(O)OC[C@H]1C[C@](O)(CO)[C@@H](O)[C@H](O)[C@@H]1O  apparent Vmax (valA (Streptomyces hygroscopicus, UniProt H2K887); phosphate release; 150 µM): 2.7 ± 0.3 µM/min
c1ccc2c(c1)cc1ccc3cccc4ccc2c1c34  Hill slope (Aryl hydrocarbon receptor (Ahr, Rattus norvegicus, UniProt P41738); reporter gene, agonist; H4IIE-luc rat hepatoma cells; 0.2 to 50 nM): 43
[2H]c1c([2H])c([C@]2([2H])CCCN2C(=O)C(C)(C)Oc2ccc3cn[nH]c3c2)c([2H])c([2H])c1C([2H])([2H])[2H]  remaining binding (Leukocyte tyrosine kinase receptor (LTK, Homo sapiens, UniProt P29376); KINOMEscan; 1 µM; reference: DMSO control): 81%
CC(CCn1ccc(-c2ccc(-c3cn(Cc4cccnc4)nn3)cc2)cc1=O)(C(=O)NO)S(C)(=O)=O (centres unmarked)  residence time (UDP-3-O-acyl-N-acetylglucosamine deacetylase (Pseudomonas aeruginosa, UniProt P47205); reference: 1): ~3 fold
CN1CCN(c2cc(-c3ccncc3)c(-c3ccc4ccccc4c3)nn2)CC1  activation (Free fatty acid receptor 2 (FFAR2, Homo sapiens, UniProt O15552); agonist, FLIPR; 12.5 µM): 15%
c1cncc([C@@H]2CCCN2)c1  resting-state kon (Chrnd/Chrna1/Chrne (Mus musculus, UniProt P02716+P04756+P20782); single-channel kinetics; wild-type receptor): 1.77e+08 M⁻¹ s⁻¹
C[C@@H](O)[C@H](NC(=O)c1ccc(-c2ccc(Br)cc2)cc1)C(=O)NO  entropy change (ΔS) (UDP-3-O-acyl-N-acetylglucosamine deacetylase (Pseudomonas aeruginosa, UniProt P47205, C40S); isothermal titration calorimetry; concentration not given, 298 K, untagged protein, averaged): 0.0165 kcal/mol/K
COC(=O)[C@@]1(O)C[C@H]2O[C@]1(C)n1c3ccccc3c3c4c(c5c6ccccc6n2c5c31)C(=O)NC4  kinase activity (Mitogen-activated protein kinase 3 (MAPK3, Homo sapiens, UniProt P27361); ADP-Glo; 1.43 µM, added: MBP substrate): 119% and 106% and 96.8%
CC(C)[C@@H]1NC(=O)[C@H](C)OC(=O)[C@@H](C(C)C)NC(=O)[C@@H](C(C)C)OC(=O)[C@H](C(C)C)NC(=O)[C@H](C)OC(=O)[C@@H](C(C)C)NC(=O)[C@@H](C(C)C)OC(=O)[C@H](C(C)C)NC(=O)[C@H](C)OC(=O)[C@@H](C(C)C)NC(=O)[C@@H](C(C)C)OC1=O  protein level (Metalloendopeptidase OMA1, mitochondrial (OMA1, Homo sapiens, UniProt Q96E52); Western blot, refers to: OMA1; HEK293T, control siRNA; concentration not given): 73.4 ± 6.7%
CC[C@H](C)[C@H](NC(=O)CNC(=O)[C@@H](N)CCCCN)C(=O)N[C@@H](CC(C)C)C(=O)N[C@@H](CCCCN)C(=O)N[C@@H](CCCNC(=N)N)C(=O)N[C@@H](CCC(=O)O)C(=O)N[C@@H](CCCCN)C(=O)N[C@@H](CCCNC(=N)N)C(=O)N[C@@H](CC(C)C)C(=O)N[C@@H](CCCNC(=N)N)C(=O)N[C@@H](CCCNC(=N)N)C(=O)N[C@@H](CCCCN)C(=O)N[C@@H](CC(N)=O)C(=O)N[C@H](C(=O)N[C@@H](Cc1c[nH]cn1)C(=O)N[C@@H](Cc1c[nH]c2ccccc12)C(=O)N1CCC[C@H]1C(=O)N[C@@H](CCC(=O)O)C(=O)N[C@@H](CCC(=O)O)C(=O)NCC(=O)N[C@@H](CCCCN)C(=O)N[C@@H](CC(C)C)C(=O)N[C@@H](CCCNC(=N)N)C(=O)N[C@@H](CCC(=O)O)C(=O)N[C@@H](Cc1ccccc1)C(=O)N[C@@H](Cc1ccccc1)C(=O)N[C@@H](Cc1ccccc1)C(=O)N[C@@H](Cc1ccccc1)C(=O)N[C@@H](CCC(=O)O)C(=O)N[C@@H](CC(C)C)C(=O)N[C@@H](CC(=O)O)C(=O)N[C@@H](CCC(=O)O)C(=O)N[C@@H](C)C(=O)N[C@@H](CCC(=O)O)C(=O)N[C@@H](CCCNC(=N)N)C(=O)N[C@H](C(=O)N[C@@H](CC(N)=O)C(=O)N[C@H](C(=O)O)C(C)C)C(C)C)C(C)C  entropic term −TΔS (Serine/threonine-protein phosphatase PP1-alpha catalytic subunit (PPP1CA, Homo sapiens, UniProt P62136); binding, isothermal titration calorimetry; 25 °C, PP1α residues 7-330): -17.1 ± 1.1 kcal/mol
C[C@]12CC[C@H]3[C@@H](CCC4=CC(=O)CC[C@@]43C)[C@@H]1CC[C@@H]2C(=O)CO  11β-hydroxylation product formation rate (Cytochrome P450 11B2, mitochondrial (CYP11B2, Homo sapiens, UniProt P19099); substrate; 100 µM, 37 °C, phospholipid vesicles): 34.2 ± 1.1 min⁻¹
O=C(O)CCC(=O)C(=O)O  apparent kcat (Hypoxia-inducible factor 1-alpha inhibitor (HIF1AN, Homo sapiens, UniProt Q9NWT6, E105A); cosubstrate; pH 7.00, 37.0 °C, mutant E105A, added: CTAD peptide 100 µM, cosubstrate 217 µM): 0.383 ± 0.05 s⁻¹
COc1cc(Nc2ncc(F)c(Nc3ccc4c(n3)NC(=O)C(C)(C)O4)n2)cc(OC)c1OC  inhibition (3-phosphoinositide-dependent protein kinase 1 (PDPK1, Homo sapiens, UniProt O15530); KINOMEscan; 10 µM): 78%
O=C1C(Cl)=C(Cl)C(=O)C(Cl)=C1Cl  remaining activity (DNA cross-link repair 1A protein (DCLRE1A, Homo sapiens, UniProt Q6PJP8); exonuclease activity, inhibitor, fluorescence HTS; 10 µM, 80 min, added: 8 nM 5P-FQ substrate): 29.5%
O=C(c1ccc(Cl)cc1)N1CCN2C(=O)N(OC(=O)N3CCOc4ccccc43)C(=O)C2C1 (centres unmarked)  mean protein ratio (Protein phosphatase methylesterase 1 (Homo sapiens, UniProt Q9Y570); MS-based ABPP; SW-620 conditioned medium; 10 µM, 1 h, 37 °C; reference: compound over DMSO, lower = more inhibition): 1
CC(=O)N[C@H](C(=O)N1C[C@H](O)C[C@H]1C(=O)NCc1ccc(-c2scnc2C)cc1)C(C)(C)SCCCCCCNC(=O)C[C@@H]1N=C(c2ccc(Cl)cc2)c2c(sc(C)c2C)-n2c(C)nnc21  ΔH (Bromodomain-containing protein 4, BD2 (BRD4, Homo sapiens, UniProt O60885, A384K/E383V/K378Q); ITC; 25 °C, BD2 mutant, binary): -10.9 ± 0.9 kcal/mol
O=C(O)COP(=O)(O)O  Ki ratio (TPI1 (Saccharomyces cerevisiae, UniProt P00942, S211G/Y208T); enzyme activity, competitive inhibitor, GPDH/NADH-coupled; pH 6.4, 25 °C, ionic strength 0.1 NaCl, added: glyceraldehyde 3-phosphate substrate; reference: mutant over wild type): 15
CN(C(=O)n1cnc(-c2ccc[n+]([O-])c2)c1)C1CCCCC1  inhibition (Estrogen receptor beta (ESR2, Homo sapiens, UniProt Q92731); radioligand binding; 50 µM, added: [3H]estradiol): 1%
CNC(=O)Oc1ccccc1OC(C)C  remaining activity (uncharacterized protein; enzyme activity, inhibitor; Sf9 cell homogenate; 0.1147 µM, 0.1667 h, added: α-naphthyl acetate substrate; reference: no inhibitor): 98.3%
Nc1ncc(-c2nc(N3CCOCC3)nc(N3CCOCC3)n2)c(C(F)F)n1  remaining binding (Platelet-derived growth factor receptor alpha (PDGFRA, Homo sapiens, UniProt P16234); KINOMEscan; 10 µM): 80%
C[N+](C)(C)CCOS(=O)(=O)[O-]  binding (SAR11_0797 protein (Candidatus Pelagibacter ubique); isothermal titration calorimetry; concentration not given): no binding
C[C@H]1CN(c2n[nH]c3nc(N[C@H]4CC[C@H](NS(=O)(=O)CCC(F)(F)F)CC4)ncc23)CCO1  relative abundance (Hsp90 co-chaperone Cdc37 (CDC37, Homo sapiens, UniProt Q16543); inhibitor, Kinobeads competition profiling; 20 µM; reference: vehicle): 1.1
COc1ccc(N2C(=O)N(c3c(C)cccc3Cl)Cc3cnc(Nc4ccc(C5CCN(C)CC5)cc4OC)nc32)nc1  inhibition (Serine/threonine-protein kinase PLK1 (PLK1, Homo sapiens, UniProt P53350); kinase activity; 0.5 µM): 10%

A few entries again:
O=C(Cc1cccs1)N[C@@H]1C(=O)N2C(C(=O)O)=C(/C=C/c3ccc([N+](=O)[O-])cc3[N+](=O)[O-])CS[C@H]12  kcat (Metallo-beta-lactamase type 2 (blaNDM-1, Klebsiella pneumoniae, UniProt C7C422); substrate, steady-state kinetics): 12.6 ± 0.7 s⁻¹
O=C1C(Cl)=C(Cl)C(=O)C(Cl)=C1Cl  remaining activity (DNA cross-link repair 1A protein (DCLRE1A, Homo sapiens, UniProt Q6PJP8); exonuclease activity, inhibitor, fluorescence HTS; 10 µM, 80 min, added: 8 nM 5P-FQ substrate): 29.5%
CC(C)C[C@H](NC(=O)[C@@H]1CCCN1C(=O)[C@H](CCCNC(=N)N)NC(=O)[C@H](CC(C)C)NC(=O)[C@H](CCCNC(=N)N)NC(=O)[C@H](CC(=O)O)NC(=O)[C@H](Cc1ccc(O)cc1)NC(=O)[C@H](CC(=O)O)NC(=O)[C@H](CCC(=O)O)NC(=O)[C@H](CCC(N)=O)NC(=O)CN)C(=O)O  koff (Epithelial sodium channel subunit alpha (Homo sapiens, UniProt P37088); binding, bio-layer interferometry): 0.0197 s⁻¹
COc1cc(Nc2ncc(F)c(Nc3ccc4c(n3)NC(=O)C(C)(C)O4)n2)cc(OC)c1OC  inhibition (3-phosphoinositide-dependent protein kinase 1 (PDPK1, Homo sapiens, UniProt O15530); KINOMEscan; 10 µM): 78%
CN[C@@H]1C[C@H]2O[C@@](C)([C@@H]1OC)n1c3ccccc3c3c4c(c5c6ccccc6n2c5c31)C(=O)NC4  ΔTm (Proto-oncogene tyrosine-protein kinase Src (SRC, Homo sapiens, UniProt P12931); binder, differential scanning fluorimetry): 0 °C
